Measurements from different studies.
Numbered parts are unrelated; each lists some results of a single study.

Sample 1
Target: RNA binding protein fox-1 homolog 2, RRM domain, GST-SBP tag (RBFOX2, Homo sapiens, UniProt O43251-10, residues 100-194)
Method: RNA Bind-n-Seq
Molecule type: RNA
Matrix: in vitro
Tested at: 365 nM
Notes: natural RNA segment, single round, ends assumed
Reference: no-protein control
Reading: higher = stronger binding
Constant ends, left off below: GGGAGUUCUACAGUCCGACGAUC … UGGAAUUCUCGGGUGCCAA
Construct (chain): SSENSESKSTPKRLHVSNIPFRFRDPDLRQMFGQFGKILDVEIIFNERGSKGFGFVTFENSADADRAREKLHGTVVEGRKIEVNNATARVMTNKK
Oligonucleotide | RBNS enrichment (R)
AAAGCGGUCAACUGGAAACUAAAUGGAGCAGCAGCUCCUCUCUGUGGCCAGGGCAUCAGACACAGGAGGAUCCCAGAACGGCAGCACUGAGCCCCUGCUCCCAGAUCCCU | 0.256
GGCACCUCCGUGUUUGGUCUUUUUUUUCCCCUGUGUGAAAGAAGAAACGGCACGACCCCUUCUCAAGCUGGCUCACUCAGACACAUUGGGACAAACCCUGGACAGCCAUG | 0.243
CCGUGAAGUGUGAGAAAACAAGGAGGGGAACAAAUGGGACUUACCAAGCAAGGUCAUUGUUGUGAAAAGUCUGUAAAUGCUUCUAACUCUUCCCCCUCUUAAAAUCAUAA | 0.406
CAUUUCAAAAUACUUUAGUAUAUCAAUAUCAGUAGAUACCAGUGGGUGGGAAAGGGUCAUUACAUGAAAAUAUGAAGAAAUAGCCAUAUUAGUUUUUUAACCUGCAAUUU | 0.47
AAGAACAUUUUUAAUUCUUUAGGAAUCUGCAAUGAGUGAUUACAUGCUUGUAAUAGGUAGGCAAUUCCUUGAUUACAGGAAGCUUUUAUAUUACUUGAGUAUUUCUGUCU | 0.319
UGUGGUAUCCAAGGAAUCACUUUUAUGAGGGCUAAAGAUAAAGAAUUUGGCCAGAAAAUGCAGCCAUCCUUGUGUGAUUAGGAGGGUUUCAGGGGCCACUGGACUAUUUG | 0.49
GGUCUAGGAAGCCGAAGCUGAGUGCGCACUAGAGCUGCUAGCAGGCAGGCCAGAGGGUCAGCUUGUGUUUUAUUUUCUGAUUUCUCCUGCAUGCUUUCUGGAGAUGAGGA | 22
CAUCUAGUAAAAUGGCUGAAGGGGAAGAGAAGGAGGACCAAUCUGAAGACAAGAGCUCACCCACUGUGCCUCCCAGCCCAUUCCCUGCCCCCUCAAAGCCUUCAGCCACC | 0.376
AAAUCGCUGGUGCUCACAAUUGUCUCUUGUAAUGUAUGUGAUUUUUUUAAGGAGAAAAAGAAACUUAUUUAAGAUUCUGAAGGUGCUACUAUUUUCUGUUGCCACAGGCU | 0.853
CAGGGGUUUUAGCUCUGUUCUCUGCUCCCAUCCUUCGCUCACCAGCUGAGUGAGAACAUGAACUUUUUGCACCAUGUACCCAUGGCUUACACUACUUAGAAAAUCACCUU | 0.424
UGGACUGGCCCCUUAAUUCCCACAGGCCCCCCCAGCAAGGCCAAAGGGAGGCCCCUGGGUAUUGUCCUCCUACAAGGAAGAUCCUCUUUGUUUGUUCAAAGGACCAGUUU | 0.286
AGAAAUAAUCUGUCUUUAGUAUACAGAAUGGUUCUUUGUUUGCCUGAAAAGUAUAAGAAUACAAUUUACUUUUCCCAAACUCUUUUUCCUUAUUUUUUUCUUUCAAAUAA | 0.665

Sample 2
Target: Histone acetyltransferase KAT6A, winged helix 2, GST fusion (KAT6A, Homo sapiens, UniProt Q92794, residues 85-181)
Method: protein binding microarray
Molecule type: double-stranded DNA, one strand shown
Matrix: in vitro
Tested at: not given
Notes: 8-mer, flanks averaged, mean of 2 arrays, mostly near background
Reference: not given
Reading: higher = stronger binding
Residues (chain): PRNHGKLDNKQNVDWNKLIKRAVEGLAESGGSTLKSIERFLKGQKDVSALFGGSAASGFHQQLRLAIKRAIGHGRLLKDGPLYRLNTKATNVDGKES
Oligonucleotide | E-score
CGCACGGA | 0.184
ACAAATAG | -0.116
GCTGAGAC | -0.0592
ACTCTGGC | 0.1
GGGGATAC | -0.108
TATTTCCA | -0.026
CCCGGCCC | 0.142
ACGGTCTC | -0.0869
ATGATTGA | -0.0441
CGGGTGAG | 0.101
AATGGTCT | -0.14
GATAAGGC | 0.109
GTACGTAC | -0.11
AATCACTG | 0.097
GTTTGCCA | 0.038
GCGAGGCA | 0.157
GGGTAAAA | 0.0205
CTGCTTTA | 0.113
AACCAACC | 0.0493
ACAAAACG | -0.0483
GGAGTTGA | -0.0782
ATGTATAG | -0.0285
CGCGGCCC | 0.196
ACGTTCAC | -0.215
AACGGGGA | -0.0928

Sample 3
Target: Interferon regulatory factor 7, full length, phosphomimetic (IRF7, Homo sapiens, UniProt Q92985, residues 1-503, S471D/S472D/S475D/S476D/S477D/S483D/S484D/S487D)
Method: protein-binding microarray
Molecule type: double-stranded DNA, one strand shown
Matrix: in vitro
Tested at: 2200 nM top
Notes: 60-bp whole probe
Together with: salmon DNA 0.4 mg/ml
Reference: random background probes
Reading: higher = stronger binding
Constant ends, left off below: GCCTAGCAC … GTCTTGATTCGCTTGACGCTGCTG
Construct (chain): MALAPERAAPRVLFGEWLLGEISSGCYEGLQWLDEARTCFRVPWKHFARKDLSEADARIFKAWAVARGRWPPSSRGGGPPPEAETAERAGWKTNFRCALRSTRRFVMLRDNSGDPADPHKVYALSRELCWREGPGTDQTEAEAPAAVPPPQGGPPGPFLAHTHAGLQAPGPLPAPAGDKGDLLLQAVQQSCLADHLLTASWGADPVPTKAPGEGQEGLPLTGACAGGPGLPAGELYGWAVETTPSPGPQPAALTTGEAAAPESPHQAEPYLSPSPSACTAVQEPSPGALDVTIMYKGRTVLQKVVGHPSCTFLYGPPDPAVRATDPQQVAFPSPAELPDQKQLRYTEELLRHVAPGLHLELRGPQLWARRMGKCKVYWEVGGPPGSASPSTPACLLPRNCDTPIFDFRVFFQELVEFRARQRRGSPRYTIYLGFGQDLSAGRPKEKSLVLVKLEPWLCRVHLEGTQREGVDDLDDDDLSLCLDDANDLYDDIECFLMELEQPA
Oligonucleotide | fitted relative affinity [z-score]
GAAGATTTCAATTAGAAAAAGTGCTAG | -1.05
AAGAATCAGGGGTTTTATCCGTGCTAG | -0.0993
TCATTTCTATGTCTGTTACTGTGCTAG | 2.49
GAAGGTTTCCTACTGCTGACGTGCTAG | 1.11
GGCGATATCGGGACTGGAGACGTGCTA | -0.838
TTATGTGTAGGTCTTAAATAGTGCTAG | -0.196
TTAGATTTCGGGTTTCGATGAGTGCTA | 4.76
GACGATTTCAGACTGGAGCCGTGCTAG | 0.206
TCAAATCCCCTTCTACTACTGTGCTAG | 1.23
GACGGACTGCCTTTCCTGACGTGCTAG | 0.735
TTCGGTTTCCTTATCCTTTAGTGCTAG | 4.66
GACGGACTGGTGACTGGGGACGTGCTA | -0.713
TTAGATTTCAGACTGGATGAGTGCTAG | -0.181
TCACATTTTCATTTTGTACTGTGCTAG | 5.33
TGATCCAAAAAGTGTGAGAAGTGCTAG | -0.251
ATCCCATTAAATTTTAATAAGTGCTAG | 0.237
TCATTTTTTTTTTTCTGACTGTGCTAG | 2.33

Sample 4
Target: Ras GTPase-activating protein-binding protein 1, full length (G3BP1, Homo sapiens, UniProt Q13283)
UniProt Q13283, sequence (whole entry, looked up): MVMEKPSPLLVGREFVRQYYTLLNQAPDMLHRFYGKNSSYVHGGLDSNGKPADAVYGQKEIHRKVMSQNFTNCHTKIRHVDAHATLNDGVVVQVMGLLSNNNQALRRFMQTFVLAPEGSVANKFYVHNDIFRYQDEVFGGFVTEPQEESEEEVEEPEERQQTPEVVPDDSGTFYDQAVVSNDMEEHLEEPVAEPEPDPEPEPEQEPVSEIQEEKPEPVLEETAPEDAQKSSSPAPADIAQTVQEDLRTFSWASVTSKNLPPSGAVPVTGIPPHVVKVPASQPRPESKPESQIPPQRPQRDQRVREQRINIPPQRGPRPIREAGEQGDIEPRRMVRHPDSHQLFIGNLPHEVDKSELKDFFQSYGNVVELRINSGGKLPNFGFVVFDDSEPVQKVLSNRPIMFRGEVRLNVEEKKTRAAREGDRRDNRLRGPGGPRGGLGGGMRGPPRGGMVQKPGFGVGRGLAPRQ
Method: RNA Bind-n-Seq
Molecule type: RNA
Matrix: in vitro
Tested at: 200 nM
Notes: whole 134-nt RNA, ends assumed
Together with: 150 mM LiCl
Reference: input library
Reading: higher = stronger binding
Each molecule: 7-deaza-guanosine replaces G
Constant ends, left off below: GGGAGUUCUACAGUCCGACGAUC … UGGAAUUCUCGGGUGUCAAGG
Oligonucleotide | log2 enrichment
GCAGGAAGUAAAAACAAAUGGAAAUGCUUCGGAUAGUGGCAGGGGUGGGGGUUGCUAAGGAAAGGGUGGGAUGGGAGUGGUUAAAGAGUU | 0.279
AGUCCUGUGCUACACAUCGUAUGUACCGAAUCGGGGAAAGGGGUUUUUGGGGUGGGGAAAGUAUUAUGUUACGCCGUUCGGAUCUGCACU | -0.089
CAAGUCCUGUGCUACACAUCGUAUGUACCGAAUCGGGAAAGGGAAAAAGGGUGGGAAAGUAUUAUGUUACGCCGUUCGGAUCUGCACUUC | -0.602
AAGUCCUGUGCUACACAUCGUAUGUACCGAAUCGGGAAAAGGGGAAAAGGGAAAAGGAAAGUAUUAUGUUACGCCGUUCGGAUCUGCACU | 0.389
AUAGAUUGCGCAGUCUCUUUGUGGAGAGGACUUGAUCAUUAAAGGAAUCAGCGUUCAUAUAUCCAAUGCCGAACCUAAGCACAAUAGCAA | -0.818
AGUCCUGUGCUACACAUCGUAUGUACCGAAUCGGAAAAAGGAAAAAGGGAAAAAGGGGAAAGUAUUAUGUUACGCCGUUCGGAUCUGCAC | -0.528
CCUCAAGUCCUGUGCUACACAUCGUAUGUACCGAAUCGGGAGGGAGGAGGGGAAAGUAUUAUGUUACGCCGUUCGGAUCUGCACUUCCAG | -0.099
UGGGAGGUGGAUUUUGUUUAUUUUUUUAGCUCAUUUCCAGGGGUGGGAAUUAUUUUUUAAUAUGUGUCAUGAAUAAAGUUGUUUUUGAAA | -0.375
UGGGAGGUGGAUUUUGUUUAUUUUUUUAGCUCAUUUCCAGGGGUGGGAAUUUUUUUUUAAUAUGUGUCAAGAAUAAAGUUGUUUUUGAAA | -0.352
GCAGGAAGUAAAAACAAGUGGAAAUGCUUCGGAUAGUGGCAGGGGUGGGGGUUGCUAAGGAAAGGGUGGGAUGGGAGUGGGUAAAGAGUU | -0.227
AAGUCCUGUGCUACACAUCGUAUGUACCGAAUCGGGGAAAGGGGAAAGGGGAGGGGAAAGUAUUAUGUUACGCCGUUCGGAUCUGCACUU | 0.548

For quick reference, copied from above (sample 3):
Oligonucleotide | fitted relative affinity [z-score]
TTCGGTTTCCTTATCCTTTAGTGCTAG | 4.66
GACGGACTGCCTTTCCTGACGTGCTAG | 0.735
TCACATTTTCATTTTGTACTGTGCTAG | 5.33
TCATTTCTATGTCTGTTACTGTGCTAG | 2.49
TTAGATTTCGGGTTTCGATGAGTGCTA | 4.76
TGATCCAAAAAGTGTGAGAAGTGCTAG | -0.251
AAGAATCAGGGGTTTTATCCGTGCTAG | -0.0993
TCAAATCCCCTTCTACTACTGTGCTAG | 1.23
GACGATTTCAGACTGGAGCCGTGCTAG | 0.206
TTAGATTTCAGACTGGATGAGTGCTAG | -0.181
GAAGATTTCAATTAGAAAAAGTGCTAG | -1.05
